Results gathered from unrelated publications.
Lines come from different studies, so protocols differ. Positions count from the first letter of the parent shown. pKd: −log10 of the molar value.
Cdca7: Cdca7 241-382 (Mus musculus, UniProt Q9D0M2)
Chain of UniProt Q9D0M2 (whole entry, looked up): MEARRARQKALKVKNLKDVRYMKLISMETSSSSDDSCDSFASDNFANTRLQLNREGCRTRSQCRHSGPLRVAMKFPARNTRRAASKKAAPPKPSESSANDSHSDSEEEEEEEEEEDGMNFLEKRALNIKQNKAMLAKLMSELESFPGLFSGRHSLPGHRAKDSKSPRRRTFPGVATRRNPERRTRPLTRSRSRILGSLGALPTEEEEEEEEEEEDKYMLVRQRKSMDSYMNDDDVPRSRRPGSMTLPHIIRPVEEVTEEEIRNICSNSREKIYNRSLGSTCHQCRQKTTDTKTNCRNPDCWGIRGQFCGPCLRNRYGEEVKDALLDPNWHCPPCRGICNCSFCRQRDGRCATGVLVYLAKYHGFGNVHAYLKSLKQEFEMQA
T1: MBNL1 ZF1-2/ZF3-4, N-terminal HA tag (Homo sapiens); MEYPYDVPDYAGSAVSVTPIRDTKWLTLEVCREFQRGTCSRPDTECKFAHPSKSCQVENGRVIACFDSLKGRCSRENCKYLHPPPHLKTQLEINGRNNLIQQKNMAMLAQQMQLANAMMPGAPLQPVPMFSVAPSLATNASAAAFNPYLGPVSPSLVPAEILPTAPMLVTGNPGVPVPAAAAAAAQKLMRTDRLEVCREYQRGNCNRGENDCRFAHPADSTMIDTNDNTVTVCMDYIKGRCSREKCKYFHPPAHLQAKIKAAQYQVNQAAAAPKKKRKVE
P1: PRDX1 residues 1-199; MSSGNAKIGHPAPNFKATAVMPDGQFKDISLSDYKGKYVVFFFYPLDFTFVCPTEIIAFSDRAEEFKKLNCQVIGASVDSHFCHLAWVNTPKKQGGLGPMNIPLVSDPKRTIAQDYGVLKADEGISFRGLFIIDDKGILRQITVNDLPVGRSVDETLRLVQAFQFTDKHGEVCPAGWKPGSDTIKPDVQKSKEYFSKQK
P2: Tln1 F3 domain, 309-405 (Mus musculus); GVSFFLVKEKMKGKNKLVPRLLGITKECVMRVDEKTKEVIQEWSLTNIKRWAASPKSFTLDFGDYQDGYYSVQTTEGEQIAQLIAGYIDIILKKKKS; partner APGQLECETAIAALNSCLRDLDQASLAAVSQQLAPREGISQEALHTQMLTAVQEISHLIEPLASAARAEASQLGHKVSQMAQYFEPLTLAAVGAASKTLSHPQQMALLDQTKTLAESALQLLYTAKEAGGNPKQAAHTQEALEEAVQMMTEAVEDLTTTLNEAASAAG
P3: PRDX1 (Homo sapiens); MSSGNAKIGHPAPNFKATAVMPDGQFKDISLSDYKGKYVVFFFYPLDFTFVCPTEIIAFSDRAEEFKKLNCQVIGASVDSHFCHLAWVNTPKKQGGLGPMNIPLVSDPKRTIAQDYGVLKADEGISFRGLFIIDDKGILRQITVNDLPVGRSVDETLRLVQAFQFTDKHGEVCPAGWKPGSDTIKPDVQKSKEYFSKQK
P4: ITGA2 cytoplasmic domain peptide (Homo sapiens); WKLGFFKRKYEKM; partner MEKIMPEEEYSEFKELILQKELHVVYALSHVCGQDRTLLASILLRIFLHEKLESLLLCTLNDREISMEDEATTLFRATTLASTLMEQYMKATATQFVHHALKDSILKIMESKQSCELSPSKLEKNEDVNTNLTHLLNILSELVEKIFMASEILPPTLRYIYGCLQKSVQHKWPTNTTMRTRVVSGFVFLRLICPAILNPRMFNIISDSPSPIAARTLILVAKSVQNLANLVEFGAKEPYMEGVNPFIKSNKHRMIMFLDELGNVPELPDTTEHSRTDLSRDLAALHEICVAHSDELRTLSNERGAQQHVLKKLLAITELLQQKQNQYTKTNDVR
Chain of UniProt Q8TEQ6 (whole entry, looked up): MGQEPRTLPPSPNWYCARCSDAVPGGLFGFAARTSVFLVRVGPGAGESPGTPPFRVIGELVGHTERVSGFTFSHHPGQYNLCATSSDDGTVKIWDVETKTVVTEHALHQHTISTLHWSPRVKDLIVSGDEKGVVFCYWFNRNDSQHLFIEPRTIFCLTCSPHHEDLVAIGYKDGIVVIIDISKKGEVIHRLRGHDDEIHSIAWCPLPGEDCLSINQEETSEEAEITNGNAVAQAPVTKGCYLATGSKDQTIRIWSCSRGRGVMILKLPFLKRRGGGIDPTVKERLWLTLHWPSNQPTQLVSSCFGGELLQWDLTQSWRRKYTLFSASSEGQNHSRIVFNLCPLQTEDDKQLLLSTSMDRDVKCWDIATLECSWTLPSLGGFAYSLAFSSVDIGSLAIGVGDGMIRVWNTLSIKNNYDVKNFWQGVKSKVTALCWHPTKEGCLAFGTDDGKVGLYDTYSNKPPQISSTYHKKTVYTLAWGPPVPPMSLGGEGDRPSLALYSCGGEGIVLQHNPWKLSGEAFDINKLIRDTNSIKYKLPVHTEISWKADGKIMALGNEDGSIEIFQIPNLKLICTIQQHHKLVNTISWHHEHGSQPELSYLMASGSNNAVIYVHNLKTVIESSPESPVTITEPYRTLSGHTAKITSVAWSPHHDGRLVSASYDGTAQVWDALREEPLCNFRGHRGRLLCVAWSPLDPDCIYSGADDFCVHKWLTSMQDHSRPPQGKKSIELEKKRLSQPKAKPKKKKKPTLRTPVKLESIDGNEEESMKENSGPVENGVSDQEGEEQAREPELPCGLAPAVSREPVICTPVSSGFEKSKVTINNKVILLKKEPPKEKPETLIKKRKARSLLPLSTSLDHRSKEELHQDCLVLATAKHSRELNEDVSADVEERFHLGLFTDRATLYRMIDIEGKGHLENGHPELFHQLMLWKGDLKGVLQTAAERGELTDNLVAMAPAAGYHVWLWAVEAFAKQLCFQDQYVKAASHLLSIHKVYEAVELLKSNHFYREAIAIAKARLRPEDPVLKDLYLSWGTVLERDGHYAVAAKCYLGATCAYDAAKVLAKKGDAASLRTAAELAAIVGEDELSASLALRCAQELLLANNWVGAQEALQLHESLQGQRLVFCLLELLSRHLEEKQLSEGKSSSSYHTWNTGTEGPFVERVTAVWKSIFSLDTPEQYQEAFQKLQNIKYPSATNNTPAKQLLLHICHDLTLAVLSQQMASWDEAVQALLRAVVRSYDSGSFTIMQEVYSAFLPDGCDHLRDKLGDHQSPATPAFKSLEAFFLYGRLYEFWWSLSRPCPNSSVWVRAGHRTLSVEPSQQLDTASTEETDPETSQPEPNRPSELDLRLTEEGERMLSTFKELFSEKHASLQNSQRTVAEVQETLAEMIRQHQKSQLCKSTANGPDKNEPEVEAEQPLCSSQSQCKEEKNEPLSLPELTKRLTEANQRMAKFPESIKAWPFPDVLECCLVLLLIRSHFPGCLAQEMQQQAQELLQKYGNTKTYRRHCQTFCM
Chain of UniProt P50225 (whole entry, looked up): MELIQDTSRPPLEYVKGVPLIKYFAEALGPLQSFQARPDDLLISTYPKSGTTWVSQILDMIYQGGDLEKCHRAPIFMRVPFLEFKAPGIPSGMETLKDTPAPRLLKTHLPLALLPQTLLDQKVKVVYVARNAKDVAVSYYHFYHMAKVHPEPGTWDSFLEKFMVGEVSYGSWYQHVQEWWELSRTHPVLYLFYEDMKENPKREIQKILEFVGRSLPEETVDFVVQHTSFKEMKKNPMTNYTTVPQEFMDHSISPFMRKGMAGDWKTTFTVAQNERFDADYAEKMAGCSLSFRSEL
Chain of UniProt P19525 (whole entry, unmodified, looked up): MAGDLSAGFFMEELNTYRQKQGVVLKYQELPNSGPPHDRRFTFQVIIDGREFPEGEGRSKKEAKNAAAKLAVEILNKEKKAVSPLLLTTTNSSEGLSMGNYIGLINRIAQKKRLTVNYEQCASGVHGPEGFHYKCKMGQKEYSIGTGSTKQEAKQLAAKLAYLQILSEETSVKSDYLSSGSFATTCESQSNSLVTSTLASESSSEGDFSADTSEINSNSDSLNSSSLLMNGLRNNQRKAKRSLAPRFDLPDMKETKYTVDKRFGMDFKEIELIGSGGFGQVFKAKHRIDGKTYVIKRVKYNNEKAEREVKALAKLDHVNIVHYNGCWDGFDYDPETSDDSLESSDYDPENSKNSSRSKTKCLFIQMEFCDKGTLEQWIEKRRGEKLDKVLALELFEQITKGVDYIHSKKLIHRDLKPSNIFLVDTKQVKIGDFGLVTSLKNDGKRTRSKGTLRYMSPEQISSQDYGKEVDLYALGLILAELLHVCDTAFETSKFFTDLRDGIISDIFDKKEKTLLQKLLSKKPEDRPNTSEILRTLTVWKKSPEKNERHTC
Chain of UniProt P00698 (whole entry, looked up): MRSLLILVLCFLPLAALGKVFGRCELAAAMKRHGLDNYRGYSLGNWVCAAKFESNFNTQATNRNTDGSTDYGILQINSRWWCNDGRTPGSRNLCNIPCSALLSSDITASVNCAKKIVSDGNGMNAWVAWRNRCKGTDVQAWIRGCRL
Chain of UniProt Q9H6S0 (whole entry, looked up): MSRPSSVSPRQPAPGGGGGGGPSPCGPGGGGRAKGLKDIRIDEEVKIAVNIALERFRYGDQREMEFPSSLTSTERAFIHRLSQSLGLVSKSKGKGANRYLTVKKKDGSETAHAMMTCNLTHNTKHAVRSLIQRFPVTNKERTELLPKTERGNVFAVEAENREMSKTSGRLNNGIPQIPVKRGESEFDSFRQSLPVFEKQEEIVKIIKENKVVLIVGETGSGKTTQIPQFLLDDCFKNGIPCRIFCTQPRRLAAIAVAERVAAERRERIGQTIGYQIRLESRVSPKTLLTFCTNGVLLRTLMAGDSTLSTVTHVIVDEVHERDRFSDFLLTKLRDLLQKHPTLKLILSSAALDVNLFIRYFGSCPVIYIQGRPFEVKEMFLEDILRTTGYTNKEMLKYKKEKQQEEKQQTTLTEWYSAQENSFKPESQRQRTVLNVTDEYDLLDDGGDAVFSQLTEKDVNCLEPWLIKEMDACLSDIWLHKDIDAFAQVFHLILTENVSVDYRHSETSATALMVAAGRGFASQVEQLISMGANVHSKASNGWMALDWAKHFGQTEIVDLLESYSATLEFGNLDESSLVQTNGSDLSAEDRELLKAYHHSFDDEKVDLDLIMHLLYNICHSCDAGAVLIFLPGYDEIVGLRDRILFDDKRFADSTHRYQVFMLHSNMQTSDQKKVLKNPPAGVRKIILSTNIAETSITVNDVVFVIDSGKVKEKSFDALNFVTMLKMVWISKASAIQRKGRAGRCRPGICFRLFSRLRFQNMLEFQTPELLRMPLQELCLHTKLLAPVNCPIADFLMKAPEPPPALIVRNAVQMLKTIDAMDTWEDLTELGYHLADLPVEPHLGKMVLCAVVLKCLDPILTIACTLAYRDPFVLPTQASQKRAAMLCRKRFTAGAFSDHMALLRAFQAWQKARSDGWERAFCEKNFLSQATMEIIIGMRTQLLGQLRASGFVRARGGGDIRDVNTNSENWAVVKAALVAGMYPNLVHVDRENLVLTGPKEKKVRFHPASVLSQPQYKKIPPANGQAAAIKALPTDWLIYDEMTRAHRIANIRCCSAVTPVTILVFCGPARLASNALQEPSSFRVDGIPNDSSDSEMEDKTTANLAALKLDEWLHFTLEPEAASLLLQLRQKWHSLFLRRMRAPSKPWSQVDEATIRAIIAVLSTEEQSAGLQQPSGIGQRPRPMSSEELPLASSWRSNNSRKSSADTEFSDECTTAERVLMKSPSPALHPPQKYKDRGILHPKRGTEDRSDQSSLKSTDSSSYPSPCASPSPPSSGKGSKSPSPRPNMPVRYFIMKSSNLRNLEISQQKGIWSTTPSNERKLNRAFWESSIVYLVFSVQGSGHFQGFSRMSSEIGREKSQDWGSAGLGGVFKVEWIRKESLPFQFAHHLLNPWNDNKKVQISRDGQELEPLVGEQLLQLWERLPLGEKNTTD

DNA 1 GCTGATCAACGCCCTGTCGGTGAGACTAGTACATG / DNA 2 CATGTACTAGTCGAACCGTTTGCGTTGATCAGC (DNA; annealed duplex) — binding (Cdca7; EMSA; folded DNA): binds
P1 T49A — IP/Input (DOK3 fragment; pull-down; without SAB, read off a plot; higher = more binding): 0.13 IP/Input
GATGCCCTGTCGGTGAGACCGTTTCATCG (ssDNA) — binding (Cdca7; EMSA; single-stranded DNA): no binding
GGGCGGCUAAAGAGUGCAGAGUUACUUAGUUCACUGCAGACGCCC (structured RNA; stem, loops L1 and L2) — binding (LYZ 19-147 (Gallus gallus, UniProt P00698); filter binding; folded RNA): binds
GAAACGGGACGGCACCUCUUUUAACCCUUGAAGUCACUGCCCGUUUCGAGAGUUUCUCAACUCGUUUUUCUAUUGCCAACGUGAACUUUUGCGGAUCUCCAGGAUCCGCUUUUUUUU (structured RNA) — binding (hfq full length assumed F42W (Escherichia coli, UniProt P0A6X3); tryptophan fluorescence quenching; folded RNA): binds
RNA 1 GGAGGAUGUUAAUUGGCGUGUCUUGUCUGCAACGGUAUUC / RNA 2 GAAUACCGUUGCAGACAAGACACGCCAAUUAACAUCCUCC (dsRNA) — binding (EIF2AK2 1-185 F131W/R107A (Homo sapiens, UniProt P19525); tryptophan fluorescence anisotropy; double-stranded RNA; 1 µM): binds
AAUUUUUGA (ssRNA) — binding (GEMIN5 1-726 (Homo sapiens, UniProt Q8TEQ6); EMSA; RNA; two shifted bands): binds
DNA 1 GTCGACCAGCTGAGTCGACCAGCTG / DNA 2 CAGCTGGTCGAC / DNA 3 CAGCTGGTCGAC (dsDNA; nicked, N6-methyl-dA) — binding (YTHDC2 1268-1430 (Homo sapiens, UniProt Q9H6S0); pull-down; double-stranded DNA): no binding
GUGGUCAGUCGAGUGG (ssRNA; unstructured) — binding (hfq full length assumed S38W (Escherichia coli, UniProt P0A6X3); tryptophan fluorescence quenching; RNA): binds
CGGGTGTCGGGGCTGGCTTAACTATGCGGCATCAGAGCAGATTGTACTGAGAGTGCACCATATGCGGTGTGAAATACCGCACAGATGCGT (ssDNA) — binding (RAD51 full length assumed K133A (Homo sapiens, UniProt Q06609); filter binding; single-stranded DNA): binds
GCUGCUGUUCGCUGCUG (ssRNA; hairpin) — binding (T1, MBNL1 ZF1-2/ZF3-4, N-terminal HA tag (Homo sapiens); EMSA; folded RNA): binds
P2 M11A — pKd (Tln1 residues 1655-1822 (Mus musculus); NMR titration): 4.85
P3 F48A — IP/Input (DOK3; co-IP; HEK-293T; read off a plot, added: SAB 60 µmol/L; higher = more binding): 0.5 IP/Input
SULT1A1 (Homo sapiens, UniProt P50225) — Vmax (O=C(O[C@@H]1Cc2c(O)cc(O)cc2O[C@@H]1c1cc(O)c(O)c(O)c1)c1cc(O)c(O)c(O)c1; steady-state kinetics; pH 7.4, not purified, added: EGCG 0–0.4 µM): 0.0357 µmol/min/mg
DNA 1 TGGCCAAAAAAGCATTGCTTATCAATTTGTTGCACC / DNA 2 TGGTGCAACAATATGATAAGCTTTGCTTTTTTGGCC (dsDNA; 5' T overhangs; two 2-bp mismatches) — binding (IHF alpha/IHF beta (Escherichia coli); FRET, laser T-jump; double-stranded DNA; KCl 100 mM): binds
P4 K7A R8A — relative binding (RASA1 GAP domain 714-1047 (Homo sapiens); fluorescence polarisation; baseline: unchanged protein, higher = more binding): 13
GAAACGGGACGGCACCUCUUUUAACCCUUGAAGUCACUGCCCGUUUCGAGAGUUUCUCAACUCGAAUAACUAAAGCCAACGUGAACUUUUGCGGAUCUCCAGGAUCCGCUUUUUUUU (structured RNA) — binding (hfq full length assumed N48W (Escherichia coli, UniProt P0A6X3); tryptophan fluorescence quenching; folded RNA): binds
ACCCCUUGACAGUCUCUACGGAGACUGG (RNA; 3' stem-loop) — binding (GEMIN5 1-739 (Homo sapiens, UniProt Q8TEQ6); ITC; folded RNA): no binding
P4 W1A K2A — relative binding (RASA1 GAP domain 714-1047 (Homo sapiens); fluorescence polarisation; baseline: unchanged protein, higher = more binding): 24

Excerpt of the above:
AAUUUUUGA (ssRNA) — binding (GEMIN5 1-726 (Homo sapiens, UniProt Q8TEQ6); EMSA; RNA; two shifted bands): binds
